Measurements of several laboratories.
A part holds a random share of what one study measured. Substitutions count along the parent as printed.

Series 1
Target: Histone acetyltransferase KAT6A, both winged helices, GST fusion (KAT6A, Homo sapiens, UniProt Q92794, residues 1-181)
Technique: protein binding microarray
Molecule type: double-stranded DNA, one strand shown
Sample: in vitro
Tested at: not given
Notes: 8-mer, flanks averaged, mean of 2 arrays, mostly near background
Relative to: not given
Direction: higher = stronger binding
Quantity: E-score
Target sequence (chain): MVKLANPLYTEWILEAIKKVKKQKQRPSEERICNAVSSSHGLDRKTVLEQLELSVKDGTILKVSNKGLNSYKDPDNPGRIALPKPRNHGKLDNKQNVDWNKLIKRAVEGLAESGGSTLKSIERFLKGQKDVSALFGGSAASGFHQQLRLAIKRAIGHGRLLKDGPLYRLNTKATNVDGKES
Sequence = TCTATTCA; result = -0.142
Sequence = TAGCGTCA; result = 0.143
Sequence = AAGCGCGC; result = 0.397
Sequence = GGGCTTGA; result = -0.0916
Sequence = TACCCCGA; result = 0.159
Sequence = TTGTCAAA; result = -0.181
Sequence = AATTAGGT; result = -0.0704
Sequence = AGTGACTA; result = -0.0868
Sequence = CGTTCCTC; result = 0.0611
Sequence = CCGCTACC; result = 0.232
Sequence = CAATACCC; result = -0.00453
Sequence = CAGGTAAA; result = 0.0158
Sequence = GCATAGCC; result = -0.0186
Sequence = GACCTAGC; result = -0.0536
Sequence = GTGTCAGA; result = -0.093
Sequence = TGTTGTAA; result = 0.0386
Sequence = AGAAGGCC; result = 0.0348
Sequence = CACCAGAG; result = -0.231
Sequence = CGTTGGTC; result = -0.0464
Sequence = CACCTCCA; result = -0.0882
Sequence = AGACGCAT; result = 0.118
Sequence = ACCTACGA; result = -0.228
Sequence = ATAAACAT; result = 0.105
Sequence = AGTACTTA; result = -0.113
Sequence = AGGATGAT; result = -0.146

Series 2
Target: RING finger protein unkempt homolog, zinc fingers 1-6, GST-SBP tag (UNK, Homo sapiens, UniProt Q9C0B0, residues 30-357)
Chain of UniProt Q9C0B0 (30-357, looked up): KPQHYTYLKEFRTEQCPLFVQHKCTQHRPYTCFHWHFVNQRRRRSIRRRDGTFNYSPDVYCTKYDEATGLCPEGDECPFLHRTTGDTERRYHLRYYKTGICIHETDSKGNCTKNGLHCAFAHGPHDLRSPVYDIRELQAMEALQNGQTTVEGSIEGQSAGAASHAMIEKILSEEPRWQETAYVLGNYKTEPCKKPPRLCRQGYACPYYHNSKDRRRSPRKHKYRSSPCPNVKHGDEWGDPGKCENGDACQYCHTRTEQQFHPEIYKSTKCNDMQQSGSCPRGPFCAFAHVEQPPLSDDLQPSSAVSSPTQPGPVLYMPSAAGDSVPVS
Technique: RNA Bind-n-Seq
Molecule type: RNA
Sample: in vitro
Tested at: not given
Notes: RNA with constant flanks, human and mouse sites, ends assumed
Relative to: input RNA pool
Direction: higher = stronger binding
Quantity: bound/input enrichment
Shared flanks, not repeated: GGGAGUUCUACAGUCCGACGAUC … CAACAGAGGAUUGAGCAUCA
Sequence = AAAAAUCCUUGUGGUUAACAGCAGAGGCUUCAGAGUGUAACCUGUACUCGGGCCUAGAAAUUAUUUAAAAUGGCGACUGAUACGUCUCAAGGUGAACUCGUCCAUCCUAAGGCACUCCCA; result = 0.496 ratio
Sequence = GAUAUCACCCAGACACCGCCAGCAUACAUAAACGUGUUACCAGGUUUGCCCCAGUACACCAGCAUAUAUACACCCUUGGCCAGCCUUUCUCCUGAAUAUCAGCUACCAAGAUCAGUACCA; result = 0.291 ratio
Sequence = GAUUAUUUCUGAAGGUGUUUUUUUCUUUAUUUCUUUUUCUUUUUUUUUUUUUUUCUUUUUCUUUUUUUUUUGCACAUGACAGUGUUUGUAUUGAGGACCUUCCAAGGAAGAGGGAUGCUG; result = 6.61 ratio
Sequence = GGCUCUACAGCGAUUAAGAAGAAACAACAAGAUGUGCUUGGUUUCCUAGAAGCCAACAAAAUAGGAUUUGAAGAAAAAGAUAUUGCAGCCAAUGAAGAGAAUCGGAAGUGGAUGAGAGAA; result = 1.08 ratio
Sequence = UCGGGAGGUGAUAAGACUUACAGUUUCCUAACAGCAGUGCAGGGAGGAAGUUUUAUUUUGUCUUCAUCAGGAAGCCAACUAAUUCGGUUGAUACCUGAGAGCUCAGGAAAGAUUCAUCAG; result = 0.154 ratio
Sequence = GGUGUACGCGGCGAUUUCAACUCUCGAAUGGGAGGAGGCAGUAUAGAGGUAUCUGUGCCUAGGUUUGCUGUGGGGAUUGUAAUAGGAAGAAACGGGGAAAUGAUCAAAAAGAUCCAGAAU; result = 1.51 ratio
Sequence = UUACAUCUCAAUGAAGCAAGGGACUAUGAAGUGUCAGAUAGUGCCCCUCAUCUUGAGGGCCUAGCAGAAUUUCAAGAGAAUGUAAGGAAGACCAACAAUUUUUCAGCUUUUCUUGCCAAU; result = 0.123 ratio
Sequence = GAAAUAAAGAAAUUGUCAAGUAUCUGCUAAAUCAAGGGGCUGAUGUUGCUCUUCGAGCCAAAAAUGGGUACACGGCCUUUGACCUGGUGAUGCUGCUGAACGAUCCUGACACUGAACUUG; result = 0.159 ratio

Series 3
Target: Prothrombin, mature alpha-thrombin (F2, Homo sapiens, UniProt P00734)
Technique: aptamer microarray, sandwich
Molecule type: DNA with 2'F-ANA
Sample: in vitro
Tested at: 200 nM
Notes: whole 15-mer aptamer, many near background
With: Cy3 exosite-II aptamer, 400 nM
Direction: higher = stronger binding
Quantity: mean fluorescence intensity
Sequence: GGTTGGTGTGGTTGG
Modification = 2'F-ANA at 5 6 7 8 11 13 14; result = 46.6 a.u.
Modification = 2'F-ANA at 3 5 7 9 10 11 13; result = 58.3 a.u.
Modification = 2'F-ANA at 1 2 6 13 14 15; result = 49.3 a.u.
Modification = 2'F-ANA at 2 3 6 7 9 13 14 15; result = 324 a.u.
Modification = 2'F-ANA at 4 5 6 9 10 14 15; result = 47.1 a.u.
Modification = 2'F-ANA at 2 6 7 8 11 14 15; result = 126 a.u.
Modification = 2'F-ANA at 2 4 6 7 10 12 13 14; result = 61.3 a.u.
Modification = 2'F-ANA at 1 4 5 6 7 10 12 13; result = 50.5 a.u.
Modification = 2'F-ANA at 3 4 6 11 14 15; result = 258 a.u.
Modification = 2'F-ANA at 1 4 9 12; result = 298 a.u.
Modification = 2'F-ANA at 1 3 4 11 12 13 14 15; result = 77.4 a.u.
Modification = 2'F-ANA at 1 2 4 9 10 13; result = 61.5 a.u.
Modification = 2'F-ANA at 1 6 8 9 10 13 14; result = 52.1 a.u.
Modification = 2'F-ANA at 1 2 3 4 5 7 8 10 11; result = 52.7 a.u.
Modification = 2'F-ANA at 4 5 6 7 8 10 14; result = 44.3 a.u.
Modification = 2'F-ANA at 2 4 5 10 12 14 15; result = 47.5 a.u.
Modification = 2'F-ANA at 2 3 7 8 9 10 11 13 14 15; result = 260 a.u.
Modification = 2'F-ANA at 2 4 5 7 8 11 13 14; result = 47.8 a.u.
Modification = 2'F-ANA at 1 6 9 10 11 12 13 14; result = 55.7 a.u.
Modification = 2'F-ANA at 1 3 4 5 8 9 12 13 14; result = 44.8 a.u.
Modification = 2'F-ANA at 3 4 7 8 9 12 15; result = 1040 a.u.
Modification = 2'F-ANA at 1 2 4 6 10 12; result = 91.9 a.u.

Series 4
Target: CCNE1, cyclin fold, Cln2 fusion (human)
Technique: yeast growth competition, sequencing
Sample: yeast
Notes: strong parent motif
Relative to: not given
Direction: higher = stronger binding
Quantity: normalised enrichment score
Starting sequence: INSM1 docking peptide (human); PKAIRKLHFEDEV; partner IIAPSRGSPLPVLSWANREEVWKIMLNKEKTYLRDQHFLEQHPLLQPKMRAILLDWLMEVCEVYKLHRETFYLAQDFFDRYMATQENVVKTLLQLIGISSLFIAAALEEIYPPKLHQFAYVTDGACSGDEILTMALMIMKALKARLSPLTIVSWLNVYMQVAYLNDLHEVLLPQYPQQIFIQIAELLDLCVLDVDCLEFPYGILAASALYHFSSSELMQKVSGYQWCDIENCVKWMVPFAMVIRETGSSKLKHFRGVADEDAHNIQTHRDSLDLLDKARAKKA
Substitution = K6W; result = 3.65
Substitution = E10S; result = 3.35
Substitution = K6S; result = 1.3
Substitution = L7H; result = -0.202
Substitution = K2R; result = 4.75
Substitution = E10V; result = 2.86
Substitution = D11H; result = 2.56
Substitution = A3T; result = 2.47
Substitution = E12N; result = 3.97
Substitution = K2I; result = 2.91
Substitution = D11A; result = 2.85
Substitution = F9T; result = -0.174
Substitution = E12S; result = 4.03
Substitution = F9K; result = -0.111

Series 5
Target: Hepatocyte nuclear factor 3-beta, forkhead domain (FOXA2, Homo sapiens, UniProt Q9Y261, residues 142-269)
Technique: protein-binding microarray
Molecule type: double-stranded DNA, one strand shown
Sample: in vitro
Tested at: not given
Notes: k-mer, scored over probes, only values ≥0.25
Direction: higher = stronger binding
Quantity: E-score
Construct (chain): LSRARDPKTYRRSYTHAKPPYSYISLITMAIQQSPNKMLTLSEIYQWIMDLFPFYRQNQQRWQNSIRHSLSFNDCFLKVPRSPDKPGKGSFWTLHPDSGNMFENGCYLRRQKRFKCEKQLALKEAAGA
Sequence = ATAATTAT; result = 0.359
Sequence = AGATTTAC; result = 0.275
Sequence = CATGTTAA; result = 0.281
Sequence = GCATCATA; result = 0.29
Sequence = AACTGTGT; result = 0.259
Sequence = CTACTGTA; result = 0.259
Sequence = ACATACTG; result = 0.274
Sequence = TAACATTA; result = 0.31
Sequence = ATGAACTA; result = 0.278
Sequence = AGAACAAT; result = 0.261
Sequence = CTTTACTA; result = 0.258
Sequence = ATATTTAC; result = 0.452
Sequence = TAAACAAA; result = 0.299
Sequence = TACGTACA; result = 0.258
Sequence = AAACATGT; result = 0.291
Sequence = CAAACACG; result = 0.268
Sequence = AGTGTATA; result = 0.373
Sequence = TGAGTAAA; result = 0.269
Sequence = CGTATTTA; result = 0.278

Excerpt of the above (series 1):
Sequence = GGGCTTGA; result = -0.0916
Sequence = AGTGACTA; result = -0.0868
Sequence = CAATACCC; result = -0.00453
Sequence = TACCCCGA; result = 0.159
Sequence = AATTAGGT; result = -0.0704
Sequence = AGAAGGCC; result = 0.0348
Sequence = AAGCGCGC; result = 0.397
Sequence = TTGTCAAA; result = -0.181
Sequence = CAGGTAAA; result = 0.0158
Sequence = GACCTAGC; result = -0.0536
Sequence = CACCAGAG; result = -0.231
Sequence = CACCTCCA; result = -0.0882
Sequence = TAGCGTCA; result = 0.143
